Assay results from different studies.
A part holds a random share of what one study measured. Values joined by “and” are separate records of one study, mostly repeats; a detail may differ. Substitutions count along the parent as printed.
UniProt Q16620, sequence (whole entry, looked up): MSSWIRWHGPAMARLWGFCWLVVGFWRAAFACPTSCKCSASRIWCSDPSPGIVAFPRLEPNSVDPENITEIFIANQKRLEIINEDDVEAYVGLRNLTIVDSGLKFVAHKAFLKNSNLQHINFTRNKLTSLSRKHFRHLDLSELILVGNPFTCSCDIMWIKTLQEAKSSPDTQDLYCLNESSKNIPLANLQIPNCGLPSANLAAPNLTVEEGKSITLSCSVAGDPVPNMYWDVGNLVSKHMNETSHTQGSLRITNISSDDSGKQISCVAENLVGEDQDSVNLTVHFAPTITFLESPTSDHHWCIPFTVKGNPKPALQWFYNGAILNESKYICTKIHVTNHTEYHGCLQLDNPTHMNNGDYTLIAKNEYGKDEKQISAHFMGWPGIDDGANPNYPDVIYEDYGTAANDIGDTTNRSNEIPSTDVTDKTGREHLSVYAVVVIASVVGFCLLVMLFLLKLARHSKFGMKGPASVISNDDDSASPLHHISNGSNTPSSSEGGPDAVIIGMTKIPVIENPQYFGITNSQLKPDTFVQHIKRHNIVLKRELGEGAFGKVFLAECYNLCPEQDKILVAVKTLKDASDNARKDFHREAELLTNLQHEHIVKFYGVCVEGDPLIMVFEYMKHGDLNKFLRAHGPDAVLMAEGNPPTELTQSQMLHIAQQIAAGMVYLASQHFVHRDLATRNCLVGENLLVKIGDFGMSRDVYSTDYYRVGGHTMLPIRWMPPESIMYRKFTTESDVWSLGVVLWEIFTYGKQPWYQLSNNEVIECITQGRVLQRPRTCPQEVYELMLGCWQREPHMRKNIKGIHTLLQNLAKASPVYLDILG
UniProt Q07912, sequence (whole entry, looked up): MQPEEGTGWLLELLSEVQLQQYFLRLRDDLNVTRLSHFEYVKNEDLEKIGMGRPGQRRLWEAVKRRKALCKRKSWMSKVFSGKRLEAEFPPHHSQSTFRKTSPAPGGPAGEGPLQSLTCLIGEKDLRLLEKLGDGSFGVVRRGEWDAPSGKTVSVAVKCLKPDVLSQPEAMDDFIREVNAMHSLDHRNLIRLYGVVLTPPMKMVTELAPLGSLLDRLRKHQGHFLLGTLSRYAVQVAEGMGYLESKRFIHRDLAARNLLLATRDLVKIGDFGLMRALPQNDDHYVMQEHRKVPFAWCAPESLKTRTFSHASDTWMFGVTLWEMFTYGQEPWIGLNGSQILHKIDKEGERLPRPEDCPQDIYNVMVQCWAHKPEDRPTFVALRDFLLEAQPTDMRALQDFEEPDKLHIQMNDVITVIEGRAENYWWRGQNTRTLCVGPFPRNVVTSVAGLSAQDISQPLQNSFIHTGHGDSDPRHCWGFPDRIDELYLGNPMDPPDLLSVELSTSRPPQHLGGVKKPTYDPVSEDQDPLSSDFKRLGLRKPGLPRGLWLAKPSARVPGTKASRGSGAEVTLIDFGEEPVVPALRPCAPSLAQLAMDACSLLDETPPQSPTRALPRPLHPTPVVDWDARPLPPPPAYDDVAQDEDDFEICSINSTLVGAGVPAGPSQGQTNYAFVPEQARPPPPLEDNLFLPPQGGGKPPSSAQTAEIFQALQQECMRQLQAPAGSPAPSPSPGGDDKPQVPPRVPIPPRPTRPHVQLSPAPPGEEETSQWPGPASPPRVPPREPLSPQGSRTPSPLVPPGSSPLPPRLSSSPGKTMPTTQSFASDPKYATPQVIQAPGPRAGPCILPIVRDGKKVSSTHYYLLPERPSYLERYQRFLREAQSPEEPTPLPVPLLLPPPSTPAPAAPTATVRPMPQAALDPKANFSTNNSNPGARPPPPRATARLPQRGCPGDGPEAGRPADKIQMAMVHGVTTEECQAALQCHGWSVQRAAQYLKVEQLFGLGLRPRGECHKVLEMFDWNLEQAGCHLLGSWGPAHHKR
UniProt O75385, sequence (whole entry, looked up): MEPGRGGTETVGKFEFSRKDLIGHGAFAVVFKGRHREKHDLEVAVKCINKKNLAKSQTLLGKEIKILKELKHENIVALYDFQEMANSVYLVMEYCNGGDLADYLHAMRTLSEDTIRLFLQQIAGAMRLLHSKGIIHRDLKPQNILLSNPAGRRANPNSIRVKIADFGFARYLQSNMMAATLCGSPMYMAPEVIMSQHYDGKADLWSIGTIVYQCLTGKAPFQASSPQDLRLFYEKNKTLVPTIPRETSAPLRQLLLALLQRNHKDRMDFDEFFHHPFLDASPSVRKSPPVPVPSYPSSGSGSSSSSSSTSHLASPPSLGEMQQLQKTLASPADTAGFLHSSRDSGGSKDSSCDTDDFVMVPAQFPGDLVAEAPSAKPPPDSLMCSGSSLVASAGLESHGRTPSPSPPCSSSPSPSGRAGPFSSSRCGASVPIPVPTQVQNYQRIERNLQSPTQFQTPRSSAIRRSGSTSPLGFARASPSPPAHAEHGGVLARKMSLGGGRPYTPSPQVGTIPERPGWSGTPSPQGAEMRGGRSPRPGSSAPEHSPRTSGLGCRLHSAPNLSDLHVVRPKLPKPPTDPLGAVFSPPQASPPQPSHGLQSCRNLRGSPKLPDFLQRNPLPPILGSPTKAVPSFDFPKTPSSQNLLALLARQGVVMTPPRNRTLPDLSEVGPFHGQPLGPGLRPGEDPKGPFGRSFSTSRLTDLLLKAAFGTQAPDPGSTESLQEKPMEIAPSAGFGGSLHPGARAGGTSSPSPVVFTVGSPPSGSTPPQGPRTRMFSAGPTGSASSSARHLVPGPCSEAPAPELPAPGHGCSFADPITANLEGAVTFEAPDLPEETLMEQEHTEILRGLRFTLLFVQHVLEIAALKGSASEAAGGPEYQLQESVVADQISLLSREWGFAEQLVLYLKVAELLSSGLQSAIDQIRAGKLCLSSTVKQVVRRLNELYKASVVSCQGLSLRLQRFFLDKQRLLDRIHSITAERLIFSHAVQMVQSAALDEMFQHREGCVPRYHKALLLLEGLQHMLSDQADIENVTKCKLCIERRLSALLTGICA

Series 1 — observed: binding; technique: radioligand binding; tested at: 10 µM; endpoint: inhibition
Target: Sodium-dependent noradrenaline transporter (SLC6A2, Homo sapiens, UniProt P23975)
UniProt P23975, sequence (whole entry, looked up): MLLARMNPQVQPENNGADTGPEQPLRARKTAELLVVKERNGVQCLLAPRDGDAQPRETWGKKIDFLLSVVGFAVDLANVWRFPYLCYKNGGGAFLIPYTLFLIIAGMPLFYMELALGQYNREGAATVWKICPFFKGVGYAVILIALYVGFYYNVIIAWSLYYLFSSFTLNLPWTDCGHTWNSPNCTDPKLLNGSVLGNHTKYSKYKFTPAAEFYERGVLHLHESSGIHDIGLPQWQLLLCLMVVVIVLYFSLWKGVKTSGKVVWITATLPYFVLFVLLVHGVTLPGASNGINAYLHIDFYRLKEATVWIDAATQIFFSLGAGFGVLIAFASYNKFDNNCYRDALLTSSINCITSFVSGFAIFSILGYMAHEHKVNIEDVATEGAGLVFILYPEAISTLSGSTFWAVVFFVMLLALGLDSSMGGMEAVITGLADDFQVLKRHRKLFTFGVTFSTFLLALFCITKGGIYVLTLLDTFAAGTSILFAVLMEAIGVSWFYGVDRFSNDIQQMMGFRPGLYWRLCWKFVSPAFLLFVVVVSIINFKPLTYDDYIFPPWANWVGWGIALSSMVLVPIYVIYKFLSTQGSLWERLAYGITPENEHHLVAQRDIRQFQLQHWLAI
CN1C(=O)[C@@H](N2CCc3cn(Cc4ccccc4)nc3C2=O)COc2ccccc21: -12.2%
O=C(Nc1cccnn1)N1CCC(=Cc2cccc(Oc3ccc(C(F)(F)F)cn3)c2)CC1: 7.86%
O=C(Nc1cnc(Oc2ccc(F)cc2)nc1)N1CCc2ncccc2[C@@H]1c1ccc(F)cc1: 10.2%
CN(C)C(=O)Cn1cc(-c2nc([C@@](C)(c3ccc(-c4cnc(N)nc4)cc3)C3CC3)no2)cn1: 18.9%
Cc1nc(N2CC[C@@H](O)C2)ncc1-c1cc(C(F)(F)F)cc2[nH]ncc12: 36.9%
CC(=O)Nc1nc(CN2CCC[C@H](Cc3cc(C)nc(C)c3)C2)cs1: 17.8%
CS(=O)(=O)NCC[C@H](NC(=O)c1cncc2c1cnn2-c1ccc(F)cc1)c1ccnc(S(C)(=O)=O)c1: -24.5%
Cc1cc(C)c(-n2ccn3nc(-c4cccnc4)cc23)cc1NC(=O)c1cc(C#N)cc(S(F)(F)(F)(F)F)c1: 1.95%
O=C1CCc2cc(Nc3cc(OC4CCOCC4)c([N+](=O)[O-])cc3Cl)ccc2N1: 0.76%
C[C@H](NC(=O)c1cnc2n1[C@](C)(Cc1ccc(C#N)cc1)C(=O)N2c1cc(Cl)c(F)c(Cl)c1)C(=O)NC1(c2ccccn2)CC1: -2.81%
CNC(=O)c1cc(C(=O)NC2CC2)cn(Cc2ccccc2)c1=O: -11.6%
O=C(Nc1ccc(-n2nc(-c3cccnc3)cc2C(F)(F)F)cn1)c1ccc(-c2ccccc2)c(F)c1: -9.35%
CN1C(=O)[C@@H](N2CCc3c(nn(Cc4ccccc4)c3Br)C2=O)COc2ccccc21: -7.47%
O=C1c2ccc(Nc3ccc(F)cc3F)cc2CCc2ccc(OC[C@H](O)CO)cc21: 29.4%
COCc1nc2cnc3cc(-c4c(C)noc4C)c(OC[C@H]4CCNC4)cc3c2n1[C@H](C)c1ccccc1: 34.5%
CC(C)CC(=O)N1CCc2nc(-c3ccc(Br)cc3)nc(N(C)Cc3ccccc3)c2C1: -16.6%
O=C(Nc1cccnn1)N1CC(CC=Cc2cncc(Oc3ccc(C(F)(F)F)cn3)n2)C1: -1%
Cc1cc(-n2nc(Cc3cc(F)cc(C(F)(F)F)c3)nc2C)ccc1C(N)=O: -6.7%
CC1=C(C#N)C(c2ccc3c(c2)c(NC(=O)c2ccccc2C)nn3C)C(C#N)=C(C)N1: 2.85%
O=C([C@H]1C[C@H](O)CN1c1ccc(Cl)cc1)N1CC2COCC(C1)N2Cc1ccc(Cl)cc1: -4.52%
Cc1nccc(COC(=O)N2C[C@@H]3[C@@H](CNC(=O)c4ccc5[nH]nnc5c4)[C@@H]3C2)n1: -7.15%
Nc1c(C(=O)NCc2ccc(C(=O)NCCCC3CCCCC3)cc2)cnn1-c1ccccc1: 13.5%
c1ccc(C2CCN(c3cnc4c(N5CCOCC5)nccn34)CC2)cc1: 17.4%
CC(=O)N1CCC(c2ccc(C(=O)NC(=N)N)cc2C(F)(F)F)CC1: 28.6%
Cc1c[nH]c2nccc(Oc3c(F)cc(Nc4cc(Cl)nc(N)n4)cc3F)c12: -19.2%

Series 2 — observed: binding; technique: phage display NGS; molecule type: peptide; relative to: input library; endpoint: minimum log2 enrichment ratio
Target: UDP-N-acetylglucosamine--peptide N-acetylglucosaminyltransferase 110 kDa subunit (OGT, Homo sapiens, UniProt O15294)
Construct (O15294 1-1046): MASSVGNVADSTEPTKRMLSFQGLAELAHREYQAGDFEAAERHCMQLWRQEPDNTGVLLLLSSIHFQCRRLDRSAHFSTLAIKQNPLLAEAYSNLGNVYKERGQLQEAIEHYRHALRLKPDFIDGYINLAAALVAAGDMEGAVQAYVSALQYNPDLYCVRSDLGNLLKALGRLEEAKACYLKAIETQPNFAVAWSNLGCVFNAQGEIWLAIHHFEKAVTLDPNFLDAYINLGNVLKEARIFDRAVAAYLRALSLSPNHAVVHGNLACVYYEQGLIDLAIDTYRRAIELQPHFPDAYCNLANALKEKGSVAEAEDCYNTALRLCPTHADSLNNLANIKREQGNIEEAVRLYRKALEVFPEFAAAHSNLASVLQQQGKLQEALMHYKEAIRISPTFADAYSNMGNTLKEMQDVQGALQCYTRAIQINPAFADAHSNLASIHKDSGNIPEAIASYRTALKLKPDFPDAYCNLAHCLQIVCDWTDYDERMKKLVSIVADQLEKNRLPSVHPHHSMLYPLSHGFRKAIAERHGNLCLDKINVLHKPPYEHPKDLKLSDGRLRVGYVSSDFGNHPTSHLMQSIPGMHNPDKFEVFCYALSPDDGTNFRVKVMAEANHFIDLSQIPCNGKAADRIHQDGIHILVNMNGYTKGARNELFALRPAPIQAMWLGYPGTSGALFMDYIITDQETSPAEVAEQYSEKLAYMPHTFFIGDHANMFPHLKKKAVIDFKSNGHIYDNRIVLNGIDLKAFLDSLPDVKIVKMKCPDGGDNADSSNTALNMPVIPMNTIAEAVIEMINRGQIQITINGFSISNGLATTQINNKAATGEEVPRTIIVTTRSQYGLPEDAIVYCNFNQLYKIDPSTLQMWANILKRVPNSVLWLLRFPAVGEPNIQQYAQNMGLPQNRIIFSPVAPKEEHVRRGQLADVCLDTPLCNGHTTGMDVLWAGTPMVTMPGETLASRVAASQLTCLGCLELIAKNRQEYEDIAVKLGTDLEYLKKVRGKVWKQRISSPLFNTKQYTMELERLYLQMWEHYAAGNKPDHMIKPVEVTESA
HTKGFMHRIQHHYYF: 3.24
IERDNQYHPMYIIDI: 2.35
SRQHHHYVQAMPYRD: 1.25
HSPHGTGWMQGHNAH: 3.28
YPMHNHHVMYDFHAD: 1.98
GLPFQPKYAIEYVMQ: 4.7
QWQHQTRHVHIPHNH: 2.76
HDLHSKHGNTQPHDH: 1.63

Series 3 — cell line: mouse MPNST tumor cells; technique: high-content immunofluorescence imaging; refers to: nuclear SOX9; tested at: 10 µM; time: 12 h; notes: mean of 2 replicates; relative to: DMSO control; reading: higher = more nuclear SOX9; endpoint: nuclear SOX9 intensity
COc1ccccc1CN[C@H]1C2CCN(CC2)[C@H]1C(c1ccccc1)c1ccccc1: 156 % of DMSO
NC(=O)OCCCc1ccccc1: 88.9 % of DMSO
N[C@@H]1C[C@H]1c1ccccc1: 77.4 % of DMSO and 99.8 % of DMSO

Series 4 — target: vanadate, free oxyanion; technique: microfluidic competitive inhibition; matrix: in vitro, cell-free expressed; tested at: not given; reading: lower = stronger binding; endpoint: oxyanion analog dissociation constant
Notes: derived from inhibition constants, unchanged parent 676 nM
Parent: PafA, mature enzyme, eGFP fusion (Elizabethkingia meningoseptica, UniProt Q9KJX5); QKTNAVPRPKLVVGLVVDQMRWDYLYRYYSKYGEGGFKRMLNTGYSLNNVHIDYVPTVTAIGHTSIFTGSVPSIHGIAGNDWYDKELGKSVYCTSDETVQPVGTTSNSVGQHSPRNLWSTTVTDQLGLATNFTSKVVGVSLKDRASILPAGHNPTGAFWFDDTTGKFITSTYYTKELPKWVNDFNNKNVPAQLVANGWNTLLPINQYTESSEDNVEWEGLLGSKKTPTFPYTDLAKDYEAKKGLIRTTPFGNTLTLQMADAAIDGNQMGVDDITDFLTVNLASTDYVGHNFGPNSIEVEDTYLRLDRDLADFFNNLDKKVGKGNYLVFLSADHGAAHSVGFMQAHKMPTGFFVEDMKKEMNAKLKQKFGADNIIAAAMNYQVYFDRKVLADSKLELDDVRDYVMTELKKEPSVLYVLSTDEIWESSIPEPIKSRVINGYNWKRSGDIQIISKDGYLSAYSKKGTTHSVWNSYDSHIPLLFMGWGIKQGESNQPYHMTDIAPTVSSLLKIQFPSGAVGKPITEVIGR
A344V: 792 nM
L141V: 1.21 µM
G488V: 778 nM
E421G: 615 nM
F480V: 683 nM
R400V: 719 nM
L394V: 799 nM
D162V: 692 nM

Series 5 — organism: Cryptosporidium parvum; technique: time-kill; cell line: HCT-8; strain: nanoluciferase-expressing; reading: higher = more parasites; endpoint: parasite luminescence
SMILES: CNC(=O)c1ccc(-c2cnn3ccc(C(=O)N(C)c4ccc(Cl)c(C(=O)OC)c4)cc23)cc1
20 µM, 48 h: 26000 RLU and 30900 RLU
0.00102 µM, 48 h: 285000 RLU and 214000 RLU
0.00914 µM, 24 h: 93200 RLU and 76800 RLU

Series 6 — observed: enzyme activity; mode: inhibitor; tested at: 0.5 µM; relative to: control; endpoint: remaining activity
SMILES: COc1ccc2c(c[n+](C)c3c4cc5c(cc4ccc23)OCO5)c1OC
RAF1 (Homo sapiens, UniProt P04049): 96.7%
NTRK2 (Homo sapiens, UniProt Q16620): 104%
ULK1 (Homo sapiens, UniProt O75385): 109%
TNK2 (Homo sapiens, UniProt Q07912): 101%
